Measured values of several laboratories.
“And” joins repeats or separate records; there may be more than shown. ± gives the spread as reported.
Sequence of UniProt O43614 (whole entry, unmodified, looked up): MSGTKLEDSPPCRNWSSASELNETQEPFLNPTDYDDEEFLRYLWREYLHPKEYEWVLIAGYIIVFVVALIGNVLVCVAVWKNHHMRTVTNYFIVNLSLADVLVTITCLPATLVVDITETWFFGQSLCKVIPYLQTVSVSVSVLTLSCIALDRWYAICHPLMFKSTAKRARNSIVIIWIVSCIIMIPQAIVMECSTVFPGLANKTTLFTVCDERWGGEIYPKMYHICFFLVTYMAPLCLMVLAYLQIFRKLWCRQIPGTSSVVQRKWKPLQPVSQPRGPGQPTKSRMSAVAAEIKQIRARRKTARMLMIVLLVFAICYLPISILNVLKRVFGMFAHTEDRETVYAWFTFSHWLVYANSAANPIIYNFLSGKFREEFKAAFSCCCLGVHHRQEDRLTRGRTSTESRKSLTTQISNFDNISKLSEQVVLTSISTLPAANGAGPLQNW
Sequence of UniProt Q99VT5 (whole entry, looked up): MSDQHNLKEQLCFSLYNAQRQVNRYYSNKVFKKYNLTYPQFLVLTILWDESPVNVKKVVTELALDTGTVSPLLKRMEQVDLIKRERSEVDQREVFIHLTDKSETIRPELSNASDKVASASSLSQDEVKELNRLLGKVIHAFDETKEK
Sequence of UniProt P08253 (whole entry, looked up): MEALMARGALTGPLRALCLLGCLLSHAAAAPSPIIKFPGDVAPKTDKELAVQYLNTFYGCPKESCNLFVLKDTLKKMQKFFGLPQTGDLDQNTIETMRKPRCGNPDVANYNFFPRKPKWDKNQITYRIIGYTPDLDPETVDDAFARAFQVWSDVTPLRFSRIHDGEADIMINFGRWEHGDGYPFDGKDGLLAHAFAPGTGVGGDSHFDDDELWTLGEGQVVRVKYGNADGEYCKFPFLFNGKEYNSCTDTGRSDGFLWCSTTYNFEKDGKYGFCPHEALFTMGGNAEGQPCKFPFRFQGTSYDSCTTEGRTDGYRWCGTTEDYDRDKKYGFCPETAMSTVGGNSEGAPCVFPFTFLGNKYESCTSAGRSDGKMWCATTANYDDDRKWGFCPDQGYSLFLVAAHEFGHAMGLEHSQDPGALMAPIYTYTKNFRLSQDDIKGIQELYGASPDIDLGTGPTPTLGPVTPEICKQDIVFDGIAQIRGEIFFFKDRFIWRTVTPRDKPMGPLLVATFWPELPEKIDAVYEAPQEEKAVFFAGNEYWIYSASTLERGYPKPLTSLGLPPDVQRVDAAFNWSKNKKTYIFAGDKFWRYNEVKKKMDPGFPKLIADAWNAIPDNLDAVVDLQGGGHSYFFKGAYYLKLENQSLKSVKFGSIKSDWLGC
Sequence of UniProt P22303 (whole entry, looked up): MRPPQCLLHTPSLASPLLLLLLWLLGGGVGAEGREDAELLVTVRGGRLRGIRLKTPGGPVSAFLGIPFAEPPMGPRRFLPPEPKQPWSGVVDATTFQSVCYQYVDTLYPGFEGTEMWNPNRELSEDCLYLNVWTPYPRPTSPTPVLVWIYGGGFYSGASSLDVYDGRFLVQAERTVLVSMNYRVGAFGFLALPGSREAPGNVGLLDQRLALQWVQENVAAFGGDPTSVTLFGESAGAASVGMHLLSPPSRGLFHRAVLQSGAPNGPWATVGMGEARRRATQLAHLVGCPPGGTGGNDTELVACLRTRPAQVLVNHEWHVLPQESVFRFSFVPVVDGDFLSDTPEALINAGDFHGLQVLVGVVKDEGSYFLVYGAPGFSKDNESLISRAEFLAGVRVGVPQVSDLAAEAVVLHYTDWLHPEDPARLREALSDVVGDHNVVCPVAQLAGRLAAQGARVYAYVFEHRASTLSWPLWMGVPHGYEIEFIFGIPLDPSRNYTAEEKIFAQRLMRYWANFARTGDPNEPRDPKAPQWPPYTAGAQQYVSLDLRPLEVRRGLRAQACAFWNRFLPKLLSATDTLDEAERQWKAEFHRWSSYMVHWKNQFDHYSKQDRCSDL
Sequence of UniProt Q01959 (whole entry, looked up): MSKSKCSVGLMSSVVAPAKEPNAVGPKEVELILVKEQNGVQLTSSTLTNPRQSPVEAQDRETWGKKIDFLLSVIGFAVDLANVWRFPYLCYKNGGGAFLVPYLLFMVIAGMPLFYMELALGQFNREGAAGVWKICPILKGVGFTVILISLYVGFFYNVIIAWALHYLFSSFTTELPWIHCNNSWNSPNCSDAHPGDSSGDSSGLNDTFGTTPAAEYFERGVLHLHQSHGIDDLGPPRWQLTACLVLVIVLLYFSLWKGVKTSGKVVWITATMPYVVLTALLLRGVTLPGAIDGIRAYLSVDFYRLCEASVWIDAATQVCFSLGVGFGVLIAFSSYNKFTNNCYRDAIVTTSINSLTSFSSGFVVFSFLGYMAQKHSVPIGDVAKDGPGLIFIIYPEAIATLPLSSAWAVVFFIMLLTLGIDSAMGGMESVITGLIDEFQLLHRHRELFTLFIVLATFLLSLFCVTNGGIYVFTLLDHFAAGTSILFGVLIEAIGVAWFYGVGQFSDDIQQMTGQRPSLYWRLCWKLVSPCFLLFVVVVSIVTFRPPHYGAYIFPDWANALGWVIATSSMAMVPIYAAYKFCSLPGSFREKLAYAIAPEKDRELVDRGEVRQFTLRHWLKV
Sequence of UniProt P34897 (whole entry, unmodified, looked up): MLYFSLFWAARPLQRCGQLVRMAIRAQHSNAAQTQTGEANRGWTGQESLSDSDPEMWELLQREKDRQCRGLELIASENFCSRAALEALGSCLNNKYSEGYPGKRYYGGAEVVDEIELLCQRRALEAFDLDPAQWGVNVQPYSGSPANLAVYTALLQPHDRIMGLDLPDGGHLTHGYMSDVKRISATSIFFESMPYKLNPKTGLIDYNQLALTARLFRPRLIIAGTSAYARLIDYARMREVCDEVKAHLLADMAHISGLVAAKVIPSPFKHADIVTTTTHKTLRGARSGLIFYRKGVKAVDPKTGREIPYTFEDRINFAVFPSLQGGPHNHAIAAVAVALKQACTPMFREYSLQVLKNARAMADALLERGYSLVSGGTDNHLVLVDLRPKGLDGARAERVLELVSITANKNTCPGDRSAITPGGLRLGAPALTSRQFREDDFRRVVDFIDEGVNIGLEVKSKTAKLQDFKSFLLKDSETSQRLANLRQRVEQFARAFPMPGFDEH
Sequence of UniProt P41586 (whole entry, looked up): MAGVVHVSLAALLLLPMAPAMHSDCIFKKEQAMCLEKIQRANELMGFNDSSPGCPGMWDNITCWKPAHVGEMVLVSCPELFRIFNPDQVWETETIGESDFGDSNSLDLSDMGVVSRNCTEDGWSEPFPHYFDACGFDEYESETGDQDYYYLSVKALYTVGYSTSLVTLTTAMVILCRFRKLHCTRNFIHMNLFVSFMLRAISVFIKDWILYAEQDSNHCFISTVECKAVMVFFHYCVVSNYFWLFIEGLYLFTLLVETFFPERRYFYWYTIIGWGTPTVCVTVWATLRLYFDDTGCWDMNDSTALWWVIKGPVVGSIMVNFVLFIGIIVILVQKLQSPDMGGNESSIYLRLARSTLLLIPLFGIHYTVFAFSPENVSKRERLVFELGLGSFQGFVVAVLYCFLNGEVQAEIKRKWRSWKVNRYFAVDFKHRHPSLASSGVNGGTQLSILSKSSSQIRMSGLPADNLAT
Sequence of UniProt P06241 (whole entry, looked up): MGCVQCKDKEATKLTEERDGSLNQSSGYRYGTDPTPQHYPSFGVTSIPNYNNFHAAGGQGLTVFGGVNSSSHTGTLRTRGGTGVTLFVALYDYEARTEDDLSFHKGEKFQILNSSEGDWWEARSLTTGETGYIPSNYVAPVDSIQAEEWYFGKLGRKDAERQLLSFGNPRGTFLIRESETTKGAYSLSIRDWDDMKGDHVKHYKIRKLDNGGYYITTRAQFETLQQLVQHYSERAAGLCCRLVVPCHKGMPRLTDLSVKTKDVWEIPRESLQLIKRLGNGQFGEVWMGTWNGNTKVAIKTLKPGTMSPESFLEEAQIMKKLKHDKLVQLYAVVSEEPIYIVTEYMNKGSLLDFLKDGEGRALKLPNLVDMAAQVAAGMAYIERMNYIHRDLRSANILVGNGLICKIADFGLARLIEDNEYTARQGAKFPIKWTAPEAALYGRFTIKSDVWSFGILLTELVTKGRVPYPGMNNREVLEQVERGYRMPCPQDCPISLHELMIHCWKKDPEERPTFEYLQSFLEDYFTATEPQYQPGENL

Molecule | tested on | test | test system | setting | how to read | measurement | value
evodiamine | ACHE (Homo sapiens, UniProt P22303) | enzyme activity, inhibitor | – | – | – | IC50 | inactive
tetrahydrofolate | SHMT2 (Homo sapiens, UniProt P34897, Y105A) | substrate, MTHFD2-coupled NADH fluorescence | – | Y105A mutant, added: serine 200 mM | – | Km | 484 µM
(+)-cyclazocine | Genome polyprotein, NS3 helicase domain (Hepatitis C virus genotype 1b, UniProt Q9WMX2) | NS3 helicase DNA binding, fluorescence, Cy5-dT15 | – | 100 µM | – | inhibition | 0%
Met-enkephalin | rat neuron-specific aminopeptidase (NAP) | substrate | – | – | – | Km | 95 µM
mitragynine | – | substrate | human liver S9 | 10 min, 1 | – | Km | 1.68 µM
ETTLKSF | – | fluorescence microscopy | peptide, trypsin-treated human erythrocytes | concentration not given | – | binding | binds
(−)-cocaine | Sodium channel protein type 4 alpha, BTX-activated (Oryctolagus cuniculus, UniProt G1SLL9) | – | rabbit | concentration not given | – | on-rate reduction | ~50%
PAALVAC (6-FAM-labelled) | MMP2 (Homo sapiens, UniProt P08253) | substrate, fluorescence | peptide | – | – | substrate release rate constant | 0.048 h⁻¹
aspterric acid | – | – | Arabidopsis thaliana Col-0 seeds | 100 µg/mL, seed germination | – | hypocotyl length | 0.01 cm
maxadilan | ADCYAP1R1 (Homo sapiens, UniProt P41586) | calcium mobilization, agonist, Fluo-8 AM | COS-7 | AUC over 2 min | – | Emax | 77 ± 7%
nonaarginine | PorA peptide pore | peptide binding, planar bilayer single-channel recording | – | 0.5 µM, pH 7.4, -20 mV, cis side, 150 mM KCl | – | koff | 196 ± 20 s⁻¹
SFLLRNPNDKYEPF | BPAEC | calcium response | peptide | 100 µM, added: alpha-thrombin challenge | – | recovery time from desensitisation | ~60 min
dynorphin | HCRTR2 (Homo sapiens, UniProt O43614, del254-292/I293E/K294R/L160H/M161K/Q254E) | sensor fluorescence, fluorescence imaging | HEK293T | concentration not given, unit not given | reference: baseline | ΔF/F0 | -0.114 and -0.293 and 0.183 and 0.574 and -2.04 and 1.69 and 0.0195 and -2.12
heparin sodium | – | – | healthy Chinese adult volunteers | continuous intravenous infusion, 8 IU/kg/h, 5 days | – | AEs excluding prolonged aPTT | 100%
Ac-APPIPPPRRKR-NH2 (N-acetyl, C-amide) | Tyrosine-protein kinase Fyn, SH3 domain (FYN, Homo sapiens, UniProt P06241) | binding, C-D FTIR probe | peptide | 4 mM, pH 7.0, band C, FYN complex, peptide P-1 | – | asymmetric stretch frequency | 2252.6 ± 1.1 cm⁻¹
capreomycin sulfate | – | – | guinea pig, serum | insufflation, dose not given, dry powder combination single dose | – | AUC(0-t) | 4370 ng·h/mL
GATTACTTTTTTGCAATTTCATATGATCAATCCCCTTTATTTTAATATGTCATTAATTATACAATTAAATGGAAAATAGTGATAATTACAAAGAAAAAAATATTGTCAAATGTAGCAATGTTGTAATACAATATAGAAACTTTTTACGAATATTTAGCATGAATTGCAATTTGTCGTGGAAAAGAAGAATAACAGATTTAAGAATGACATGGAGAAAAAAGAGGTGAGCAT (dsDNA) | mgrA full length assumed (Staphylococcus aureus, UniProt Q99VT5) | EMSA | double-stranded DNA, one strand shown | – | – | Kd | 9.2 ± 4.2 µM
insulin human | – | measured: GLB1 mRNA | EcoHIV-infected mouse, brain | i.p., dose not given | reference: PBS | fold change | 1.24
ibogaine | SLC6A3 (Homo sapiens, UniProt Q01959) | transporter current, inhibitor, electrophysiology | human DAT-expressing cells | current recovery, added: dopamine 30 µM | – | koff | 0.897 s⁻¹
